Measured values collected from several papers.
Parts stem from different laboratories: compare values within a part only.

Set 1
Target: Interferon regulatory factor 7, full length, phosphomimetic (IRF7, Homo sapiens, UniProt Q92985, residues 1-503, S101K/S471D/S472D/S475D/S476D/S477D/S483D/S484D/S487D)
Technique: protein-binding microarray
Form: double-stranded DNA, one strand shown
Matrix: in vitro
Tested at: 250 nM
Notes: 60-bp whole probe
With: salmon DNA 0.4 mg/ml
Relative to: random background probes
Direction: higher = stronger binding
Shared flanks, not repeated: GCCTAGCAC … GTCTTGATTCGCTTGACGCTGCTG
Target sequence (chain): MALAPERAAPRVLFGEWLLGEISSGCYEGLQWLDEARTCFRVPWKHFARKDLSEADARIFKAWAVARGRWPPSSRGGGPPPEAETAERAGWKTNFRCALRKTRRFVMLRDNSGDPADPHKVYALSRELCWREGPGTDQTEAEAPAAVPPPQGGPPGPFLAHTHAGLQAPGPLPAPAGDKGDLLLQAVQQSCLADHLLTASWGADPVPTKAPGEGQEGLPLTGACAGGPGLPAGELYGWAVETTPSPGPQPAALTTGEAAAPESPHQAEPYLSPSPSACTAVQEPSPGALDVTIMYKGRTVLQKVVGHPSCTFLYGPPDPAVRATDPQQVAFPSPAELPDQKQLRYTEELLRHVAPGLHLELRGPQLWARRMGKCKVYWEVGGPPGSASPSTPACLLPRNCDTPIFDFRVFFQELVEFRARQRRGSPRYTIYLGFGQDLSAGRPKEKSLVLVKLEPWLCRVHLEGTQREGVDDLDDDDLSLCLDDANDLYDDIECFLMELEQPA
| Sequence | log fluorescence [z-score] |
| --- | --- |
| TTCTAAATATCTTTGTTGAAGTGCTAG | -0.253 |
| AAGCCATTGGTCTTCACTTGGTGCTAG | -0.763 |
| GACGTACTGCTTTTCCTGACGTGCTAG | 0.657 |
| GATGGTTTCCTTATCCTGACGTGCTAG | 3.31 |
| GACGGACTGGACATTCGGGACGTGCTA | -0.492 |
| GTGAGTCCCACATCTCTGTCCGTGCTA | -0.148 |
| GACCGTTTCGGACTGGGGACGTGCTAG | 2.46 |
| GACGATTTCCGTCTCGAGACGTGCTAG | 0.863 |
| TTAGGACTGGCTCTCGGTTAGTGCTAG | -0.458 |
| TCACATACGAGTTTCCATTTGTGCTAG | 6.56 |
| TCAGTTTTCTAATGTTTTACTGTGCTA | 1.5 |
| GTAGGACTGGGACTGGGTTAGTGCTAG | -0.343 |
| TTAGGACTGGACTCTGGGTTAGTGCTA | -0.522 |
| TTAGGACTGCTCATCCTTTAGTGCTAG | -0.208 |
| TTAGGTATCGACTAGCGGTTAGTGCTA | 0.213 |
| GACGGTTTCCTTTTCCCGACGTGCTAG | 7.51 |
| TTAGGTTTCGGTTTAGGTTAGTGCTAG | 14.3 |
| TCAGCTCTGTGCTTTCCTACTGTGCTA | -0.362 |
| GACGATCTCAGTATCGAAACGTGCTAG | 0.331 |
| TCAACTCTTTATTTAAGACTGTGCTAG | 0.277 |
| TTAGATCTCAGTTTCGCTTAGTGCTAG | 5.88 |

Set 2
Target: Histone acetyltransferase KAT6A, both winged helices, GST fusion (KAT6A, Homo sapiens, UniProt Q92794, residues 1-181)
Technique: protein binding microarray
Form: double-stranded DNA, one strand shown
Matrix: in vitro
Tested at: not given
Notes: 8-mer, flanks averaged, mean of 2 arrays, mostly near background
Relative to: not given
Direction: higher = stronger binding
Construct (chain): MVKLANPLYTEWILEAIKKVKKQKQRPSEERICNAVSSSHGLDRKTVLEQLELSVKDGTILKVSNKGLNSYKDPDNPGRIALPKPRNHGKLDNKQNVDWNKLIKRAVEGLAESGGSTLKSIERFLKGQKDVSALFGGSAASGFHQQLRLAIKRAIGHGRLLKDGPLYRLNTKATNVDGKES
| Sequence | E-score |
| --- | --- |
| ACAGAGGA | -0.237 |
| CGTCATAC | 0.0854 |
| ATATAAAC | 0.0449 |
| CCAAGTGC | -0.0735 |
| GAAGGAAA | 0.0533 |
| GAGTGTCA | -0.0363 |
| ATCACCTG | -0.151 |
| ATTCCAAT | 0.00679 |
| TAATTGCA | -0.0323 |
| AGAACGGC | 0.126 |
| AGAAGGGC | 0.0129 |
| CGAGCAAA | -0.0876 |
| ACCTACCA | -0.334 |
| CCCGCTGA | 0.152 |
| CGCTGTGC | 0.186 |
| TGCGCTAA | 0.265 |
| AGTGATGG | -0.157 |

Set 3
Target: RNA binding protein fox-1 homolog 2, RRM domain, GST-SBP tag (RBFOX2, Homo sapiens, UniProt O43251-10, residues 100-194)
Technique: RNA Bind-n-Seq
Form: RNA
Matrix: in vitro
Tested at: 365 nM
Notes: natural RNA segment, single round, ends assumed
Relative to: no-protein control
Direction: higher = stronger binding
Target sequence (chain): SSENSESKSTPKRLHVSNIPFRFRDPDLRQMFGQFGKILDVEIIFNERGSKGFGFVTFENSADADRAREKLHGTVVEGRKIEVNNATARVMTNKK
| Sequence | RBNS enrichment (R) |
| --- | --- |
| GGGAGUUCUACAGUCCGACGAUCACAUGUAAGUUUGAAGUAUUACUGUUUUCUCAGCAUGAAUUAAAAAUAUUCUGUAACUCAGCCAGGCAAGGUAGCUCAUGCCUGUGAUCCCAGCAUUUGGGAAACAGAGGUGGAAUUCUCGGGUGCCAA | 11.3 |
| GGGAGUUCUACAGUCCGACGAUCUUUUGGAAGGUCAUCAGAUUGUGAGACUGCUUCCUUGAAACAUUUUUGUGCUAUUGUUUUAAAAAAUAAUAAUUAAAAAACAGUUGGCGUUAAUAAAAAUGUCAAUGUGAUGGAAUUCUCGGGUGCCAA | 0.407 |
| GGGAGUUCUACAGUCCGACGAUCAUAUUUAUGCUGUCUGAAGGUCACGAUCAUGUUACCAUAUCAAGCUGAAAAUGUCACCACUAUCUGGAGAUUUCGACGUGUUUUCCUCUCUGAAUCUGUUAUGAACACGUUGGAAUUCUCGGGUGCCAA | 0.678 |
| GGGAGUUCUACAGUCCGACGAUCUGACUUUGGGAAGGAAUUUGAGGACCUCCAAGAUGUAAUGUUGGGAAAAUGAAACCAUAAACUCUAAGUGGCUCUUAUAGGUGCUGAAGGGCUUAUUCUCAGCUAACCCUUGGAAUUCUCGGGUGCCAA | 0.5 |
| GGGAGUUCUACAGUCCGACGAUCUUCUUCAUGGAGUUCUCAGAACCUUUCAGGGUUCAGGAGGCUCCCCUGAGAAUAGACAGGAGAGGGUCAGAAGCAGACGUCCUCCUUUUCUUGUGAUAACCACGCUACUUUGGAAUUCUCGGGUGCCAA | 0.36 |
| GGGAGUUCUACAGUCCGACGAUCUGGGUGGGAGUGGAAGUCCCUAGCACACAGCUUUGUGGAGACCUCCACUCUCACUCUUGGUGCAACUGACUUCCACUUCUUAUGCAGCCACUCCCAGGUGCAUGCUUCAGUGGAAUUCUCGGGUGCCAA | 0.779 |
| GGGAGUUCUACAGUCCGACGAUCAUGACAUGUGGAGAUGGGACUUAGUGUGUGAGGCAUAGGGUCAUUGGAGAUUCUUCAGACUCGGGGGAGACUGAAUUGGAUGCCUCUCUCAUCCCAGCACACUUCUAAUAUGGAAUUCUCGGGUGCCAA | 0.857 |
| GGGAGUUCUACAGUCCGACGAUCCCCAUCAAUUGAACUGUUUCUGGGCUCAGUCAGACACAGACAUUCAUCUGUGUCUGACCAAAUCAGGGGACUUCCCCACCUGUGGUGGGAGGCACAGCUUAGAUGUUUUGUGGAAUUCUCGGGUGCCAA | 0.274 |
| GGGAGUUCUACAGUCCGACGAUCACUCAGCGUGACCCAACUUUUCUAGUGUGCCACGGCCCCACCACCUCCUGCAGUACCCACACCAUCACCACUGCUUUCUCUUCCAACAGUGAUCUGUAUUCUUAGUUUCAUGGAAUUCUCGGGUGCCAA | 0.896 |
| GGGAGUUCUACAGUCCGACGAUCGGCCAUUUUUAAAACUUAAAAACUCAACACCUCACAGAUUAUAAUAGAAAAAGAAAUGGCCUCAGUUUGAUCUCGUUCAGAAUGACCCAGAUUGUUUCUGCUUUGGGUGCUGGAAUUCUCGGGUGCCAA | 0.674 |
| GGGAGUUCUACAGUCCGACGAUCGCACAUGCCGUUGCAGCACAAGCUUAUGCUUCCCGUAGCCGUGGCUUUUCAUUCUGCACAGUCCCAGGUCCCAGCUCCCCUCUUAUGGUUUCUGUCAUAAUGUGCUUUAUUGGAAUUCUCGGGUGCCAA | 0.425 |
| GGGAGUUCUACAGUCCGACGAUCGCUCUGGGGGCCACAGUGGGCUAUCUAGGCCCUCCCUCACCUGAGGCCCAGAGUGGACACAGCUGUUAAUUUCCACUGGCUAUGCCACUUCAGAGUCUUUCAUGCCAGCGUGGAAUUCUCGGGUGCCAA | 0.285 |

Set 4
Target: Sal-like protein 4, full length isoform B (SALL4, Homo sapiens, UniProt Q9UJQ4-2, residues 1-616)
Technique: universal PBM
Form: double-stranded DNA, one strand shown
Matrix: in vitro
Tested at: not given
Notes: 8-mer, flanks averaged, mean of replicates
Direction: higher = stronger binding
| Sequence | E-score |
| --- | --- |
| GCTCCATA | -0.0016 |
| ATGATGGC | -0.103 |
| CACTTAAC | 0.0684 |
| CCTCGTTC | -0.232 |
| GGATAACC | -0.154 |
| ACTTGGGA | -0.0503 |
| CCTGGGCA | -0.255 |
| CACATTAC | 0.172 |
| ATTCAGAG | -0.0325 |
| CGAACTCA | -0.191 |
| GTGTAAGA | 0.13 |
| GAAGCATC | -0.0879 |
| ACAGTGAG | -0.025 |
| CGGATAGA | 0.0277 |
| CGGTACAG | -0.164 |
| ACGTGAAT | 0.0311 |
| GGTCCGAA | -0.0919 |
| TCCCGGCA | -0.308 |

Excerpt of the above (set 4):
| Sequence | E-score |
| --- | --- |
| CGAACTCA | -0.191 |
| GGATAACC | -0.154 |
| CGGATAGA | 0.0277 |
| ACAGTGAG | -0.025 |
| ACTTGGGA | -0.0503 |
| GGTCCGAA | -0.0919 |
| CGGTACAG | -0.164 |
